Experimental data collected from several papers.
A part holds a random share of what one study measured.

Set 1
Target: Histone acetyltransferase KAT6A, winged helix 1, GST fusion (KAT6A, Homo sapiens, UniProt Q92794, residues 1-85)
Technique: protein binding microarray
Form: double-stranded DNA, one strand shown
Medium: in vitro
Tested at: not given
Notes: 8-mer, flanks averaged, mean of 2 arrays, mostly near background
Baseline: not given
Direction: higher = stronger binding
Construct (chain): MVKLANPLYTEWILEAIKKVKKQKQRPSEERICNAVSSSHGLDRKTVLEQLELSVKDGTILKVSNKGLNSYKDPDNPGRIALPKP
Oligonucleotide | E-score
ATCGGGGC | 0.207
ATGAAAAA | -0.129
CAATTAAC | 0.0409
AAGTGAAG | -0.133
CTGAACCC | 0.0977
AACATTTG | -0.106
ACCCGCCA | 0.212
TGCCGCAA | 0.2
CCTGAGTC | -0.00443

Set 2
Target: Ras GTPase-activating protein-binding protein 1, full length (G3BP1, Homo sapiens, UniProt Q13283)
UniProt Q13283, sequence (whole entry, looked up): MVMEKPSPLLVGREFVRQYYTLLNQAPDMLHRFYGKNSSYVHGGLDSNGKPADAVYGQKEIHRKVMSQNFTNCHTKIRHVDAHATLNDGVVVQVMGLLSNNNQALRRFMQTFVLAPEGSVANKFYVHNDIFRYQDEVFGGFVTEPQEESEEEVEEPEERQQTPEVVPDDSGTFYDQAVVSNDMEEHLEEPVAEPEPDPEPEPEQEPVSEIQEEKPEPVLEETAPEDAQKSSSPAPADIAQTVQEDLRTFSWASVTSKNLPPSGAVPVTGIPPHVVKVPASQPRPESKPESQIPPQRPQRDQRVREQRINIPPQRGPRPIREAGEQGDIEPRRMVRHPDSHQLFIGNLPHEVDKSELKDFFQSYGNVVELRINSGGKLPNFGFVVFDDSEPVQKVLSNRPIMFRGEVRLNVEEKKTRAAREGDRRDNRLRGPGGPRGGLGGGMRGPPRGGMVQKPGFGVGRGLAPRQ
Technique: RNA Bind-n-Seq
Form: RNA
Medium: in vitro
Tested at: 200 nM
Notes: whole 134-nt RNA, ends assumed
Together with: 150 mM KCl
Baseline: input library
Direction: higher = stronger binding
Oligonucleotide | log2 enrichment
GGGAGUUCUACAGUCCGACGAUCCCUGUGCUACACAUCGUAUGUACCGAAUCGGGGUUUUUGGGGAAAGGGGUUUUUUUGGGGAAAGUAUUAUGUUACGCCGUUCGGAUCUGCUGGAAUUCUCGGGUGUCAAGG | 0.227
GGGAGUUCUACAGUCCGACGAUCGUCCUGUGCUACACAUCGUAUGUACCGAAUCGGCCCCCCGGGCCCCCCGGCCCCCCGGAAAGUAUUAUGUUACGCCGUUCGGAUCUGCACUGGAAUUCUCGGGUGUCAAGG | -0.025
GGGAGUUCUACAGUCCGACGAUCCACAGACAACACGCACCCACACAGACACAGAGGGAAGGGGUUGGGAUCGGGACAGGGUGCACAGCAGGGCGGGGUAGGACCCCAGCCCCUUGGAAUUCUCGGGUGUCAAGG | 1.81
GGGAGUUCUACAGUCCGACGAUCAAGUCCUGUGCUACACAUCGUAUGUACCGAAUCGGAAAAGGGAAAAGGGGAAAAGGGAAAGUAUUAUGUUACGCCGUUCGGAUCUGCACUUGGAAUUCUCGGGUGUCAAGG | -0.532
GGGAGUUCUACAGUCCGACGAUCUCCUGUGCUACACAUCGUAUGUACCGAAUCGGAAAAAGGGGAAAAAGGGGAAAAAGGGGAAAGUAUUAUGUUACGCCGUUCGGAUCUGCAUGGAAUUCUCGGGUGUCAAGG | -0.0732
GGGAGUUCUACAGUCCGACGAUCUCCUGUGCUACACAUCGUAUGUACCGAAUCAAAUUUUUAAACCCCCAAAUUUUUUUAAAAAAGUAUUAUGUUACGCCGUUCGGAUCUGCAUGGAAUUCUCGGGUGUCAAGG | 0.267

Set 3
Target: Sal-like protein 4, full length isoform A (SALL4, Homo sapiens, UniProt Q9UJQ4, residues 1-1053)
UniProt Q9UJQ4, sequence (whole entry, looked up): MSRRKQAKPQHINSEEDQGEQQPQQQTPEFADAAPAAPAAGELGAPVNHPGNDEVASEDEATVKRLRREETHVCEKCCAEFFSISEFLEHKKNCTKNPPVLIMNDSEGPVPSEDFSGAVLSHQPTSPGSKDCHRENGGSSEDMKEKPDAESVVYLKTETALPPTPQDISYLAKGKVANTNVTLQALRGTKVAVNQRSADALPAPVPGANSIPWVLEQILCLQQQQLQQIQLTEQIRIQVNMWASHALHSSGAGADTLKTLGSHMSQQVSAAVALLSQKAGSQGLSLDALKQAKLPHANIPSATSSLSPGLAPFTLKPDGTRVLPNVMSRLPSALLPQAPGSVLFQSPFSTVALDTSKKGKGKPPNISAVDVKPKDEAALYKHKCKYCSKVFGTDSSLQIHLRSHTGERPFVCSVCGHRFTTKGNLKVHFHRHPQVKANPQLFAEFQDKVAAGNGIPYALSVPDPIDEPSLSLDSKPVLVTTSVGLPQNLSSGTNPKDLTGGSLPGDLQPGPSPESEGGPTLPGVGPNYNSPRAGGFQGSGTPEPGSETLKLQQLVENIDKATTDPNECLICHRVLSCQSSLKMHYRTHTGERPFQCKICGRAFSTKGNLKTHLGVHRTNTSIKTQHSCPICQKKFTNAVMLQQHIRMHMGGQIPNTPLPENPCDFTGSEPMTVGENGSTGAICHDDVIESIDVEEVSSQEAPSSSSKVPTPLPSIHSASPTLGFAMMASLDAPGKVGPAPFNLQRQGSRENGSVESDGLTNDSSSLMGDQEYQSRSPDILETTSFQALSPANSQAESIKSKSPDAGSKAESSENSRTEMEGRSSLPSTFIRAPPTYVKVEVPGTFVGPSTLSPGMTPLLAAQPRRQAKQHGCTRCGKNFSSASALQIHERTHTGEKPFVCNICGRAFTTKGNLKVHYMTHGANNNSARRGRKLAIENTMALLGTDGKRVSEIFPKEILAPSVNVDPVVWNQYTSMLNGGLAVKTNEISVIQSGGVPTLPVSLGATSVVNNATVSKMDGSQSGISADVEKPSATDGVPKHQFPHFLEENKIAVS
Technique: universal PBM
Form: double-stranded DNA, one strand shown
Medium: in vitro
Tested at: 600 nM
Notes: 8-mer, flanks averaged, mean of replicates
Direction: higher = stronger binding
Oligonucleotide | E-score
CCCAGGGC | -0.439
CTGTATGA | 0.221
AATGATCA | 0.257
CGAGGATA | -0.034
GAGGGGAA | -0.147
AGCCACAG | -0.225
GGGTATAC | -0.0725

Further values, each from its own experiment
Molecule | target | test | test system | setting | how to read | quantity | value
PhoQ, residues 284 288 289 292 302 303 NLMGRA | PhoP, residues 12 14 15 18 19 NFCKL (Escherichia coli, UniProt P23836) | Sort-seq, refers to: YFP reporter | E. coli | PhoQ-PhoP variant library, together with: 10 µM Mg2+ | baseline: high Mg2+ state, higher = stronger signaling | fold induction | 16.2

A few entries again (set 1):
Oligonucleotide | E-score
AACATTTG | -0.106
ATCGGGGC | 0.207
